Experimental data collected from several papers.
Each numbered part is a random draw from the data of one study; scales do not carry over between parts. Several values in a cell are separate wells, animals, samples, runs or records.
UniProt Q15418, sequence (whole entry, looked up): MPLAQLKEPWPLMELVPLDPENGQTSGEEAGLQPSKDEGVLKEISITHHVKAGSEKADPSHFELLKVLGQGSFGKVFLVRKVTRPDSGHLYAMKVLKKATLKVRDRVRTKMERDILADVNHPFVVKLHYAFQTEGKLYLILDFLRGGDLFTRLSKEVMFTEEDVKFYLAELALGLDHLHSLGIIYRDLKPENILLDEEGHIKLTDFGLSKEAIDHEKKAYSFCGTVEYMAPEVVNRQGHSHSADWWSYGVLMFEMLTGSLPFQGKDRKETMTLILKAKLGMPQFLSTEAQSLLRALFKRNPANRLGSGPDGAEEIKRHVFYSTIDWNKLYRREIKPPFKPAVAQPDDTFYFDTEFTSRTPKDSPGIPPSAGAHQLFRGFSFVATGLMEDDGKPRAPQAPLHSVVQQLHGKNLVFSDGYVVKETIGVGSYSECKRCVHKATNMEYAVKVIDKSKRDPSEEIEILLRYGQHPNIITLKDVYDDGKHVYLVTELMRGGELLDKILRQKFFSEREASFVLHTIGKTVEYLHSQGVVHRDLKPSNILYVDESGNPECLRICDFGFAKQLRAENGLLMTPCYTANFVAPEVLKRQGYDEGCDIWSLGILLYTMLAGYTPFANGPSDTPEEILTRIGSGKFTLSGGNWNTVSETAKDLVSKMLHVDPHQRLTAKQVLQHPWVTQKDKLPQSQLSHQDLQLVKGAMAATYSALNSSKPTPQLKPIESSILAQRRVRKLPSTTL
UniProt Q06187, sequence (whole entry, looked up): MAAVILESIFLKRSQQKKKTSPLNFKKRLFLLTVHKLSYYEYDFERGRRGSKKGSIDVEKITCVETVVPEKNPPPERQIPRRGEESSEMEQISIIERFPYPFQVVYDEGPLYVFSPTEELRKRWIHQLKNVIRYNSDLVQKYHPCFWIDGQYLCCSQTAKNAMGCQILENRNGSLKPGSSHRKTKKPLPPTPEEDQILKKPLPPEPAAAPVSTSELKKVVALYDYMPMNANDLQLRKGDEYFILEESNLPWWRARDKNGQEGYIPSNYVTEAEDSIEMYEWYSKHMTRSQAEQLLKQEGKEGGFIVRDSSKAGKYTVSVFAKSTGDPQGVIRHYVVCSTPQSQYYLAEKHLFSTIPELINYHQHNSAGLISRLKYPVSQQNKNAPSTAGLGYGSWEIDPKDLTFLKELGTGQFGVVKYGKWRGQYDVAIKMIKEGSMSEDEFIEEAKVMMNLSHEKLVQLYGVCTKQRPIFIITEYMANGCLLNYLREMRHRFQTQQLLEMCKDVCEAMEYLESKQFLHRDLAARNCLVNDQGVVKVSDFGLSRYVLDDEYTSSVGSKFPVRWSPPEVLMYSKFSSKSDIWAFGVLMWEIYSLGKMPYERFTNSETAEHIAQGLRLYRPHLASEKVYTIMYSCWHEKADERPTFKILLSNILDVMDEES
UniProt O00506, sequence (whole entry, looked up): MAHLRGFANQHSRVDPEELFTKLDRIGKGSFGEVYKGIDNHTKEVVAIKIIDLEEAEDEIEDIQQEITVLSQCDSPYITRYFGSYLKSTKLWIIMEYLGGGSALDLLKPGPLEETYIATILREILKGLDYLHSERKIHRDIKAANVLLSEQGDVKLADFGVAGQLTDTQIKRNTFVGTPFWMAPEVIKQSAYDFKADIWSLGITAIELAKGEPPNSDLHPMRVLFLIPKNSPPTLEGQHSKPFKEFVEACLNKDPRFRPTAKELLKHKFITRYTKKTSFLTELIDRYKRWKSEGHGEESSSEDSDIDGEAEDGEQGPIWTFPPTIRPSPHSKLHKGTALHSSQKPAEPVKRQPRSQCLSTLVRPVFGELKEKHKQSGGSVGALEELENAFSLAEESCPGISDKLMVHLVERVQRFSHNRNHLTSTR
UniProt O96013, sequence (whole entry, looked up): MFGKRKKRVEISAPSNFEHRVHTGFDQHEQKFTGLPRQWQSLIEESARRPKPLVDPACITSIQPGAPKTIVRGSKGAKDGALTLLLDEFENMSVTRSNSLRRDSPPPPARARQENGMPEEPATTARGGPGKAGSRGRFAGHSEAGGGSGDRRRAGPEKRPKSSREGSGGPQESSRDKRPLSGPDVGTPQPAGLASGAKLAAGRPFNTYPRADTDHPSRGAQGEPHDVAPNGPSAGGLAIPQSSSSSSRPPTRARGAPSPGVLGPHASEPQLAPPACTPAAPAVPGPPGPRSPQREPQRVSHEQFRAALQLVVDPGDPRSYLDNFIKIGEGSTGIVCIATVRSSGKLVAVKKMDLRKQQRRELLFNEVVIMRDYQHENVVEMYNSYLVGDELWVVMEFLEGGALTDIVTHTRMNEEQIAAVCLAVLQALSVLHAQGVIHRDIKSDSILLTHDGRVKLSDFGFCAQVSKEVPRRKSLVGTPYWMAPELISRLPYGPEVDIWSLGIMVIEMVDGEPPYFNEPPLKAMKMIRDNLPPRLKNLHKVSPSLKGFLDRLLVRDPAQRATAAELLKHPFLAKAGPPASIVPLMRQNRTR
UniProt P24723, sequence (whole entry, looked up): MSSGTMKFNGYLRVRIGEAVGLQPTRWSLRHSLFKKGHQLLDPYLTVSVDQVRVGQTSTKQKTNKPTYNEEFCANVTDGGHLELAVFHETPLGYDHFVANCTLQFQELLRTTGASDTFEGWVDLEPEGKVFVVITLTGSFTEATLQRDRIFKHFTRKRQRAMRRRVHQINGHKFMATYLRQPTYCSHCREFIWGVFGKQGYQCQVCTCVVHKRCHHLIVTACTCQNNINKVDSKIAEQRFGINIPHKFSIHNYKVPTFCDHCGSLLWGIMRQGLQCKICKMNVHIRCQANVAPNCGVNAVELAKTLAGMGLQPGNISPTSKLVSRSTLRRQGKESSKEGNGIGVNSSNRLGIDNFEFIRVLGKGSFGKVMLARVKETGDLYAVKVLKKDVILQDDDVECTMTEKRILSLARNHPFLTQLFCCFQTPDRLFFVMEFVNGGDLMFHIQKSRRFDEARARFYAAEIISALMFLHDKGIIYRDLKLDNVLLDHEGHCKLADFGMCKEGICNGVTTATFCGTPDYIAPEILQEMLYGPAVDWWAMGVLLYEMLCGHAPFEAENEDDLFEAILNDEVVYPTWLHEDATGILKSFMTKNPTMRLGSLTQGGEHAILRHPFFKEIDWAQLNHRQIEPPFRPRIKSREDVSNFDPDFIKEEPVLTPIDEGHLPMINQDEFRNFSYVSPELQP
UniProt Q02779, sequence (whole entry, looked up): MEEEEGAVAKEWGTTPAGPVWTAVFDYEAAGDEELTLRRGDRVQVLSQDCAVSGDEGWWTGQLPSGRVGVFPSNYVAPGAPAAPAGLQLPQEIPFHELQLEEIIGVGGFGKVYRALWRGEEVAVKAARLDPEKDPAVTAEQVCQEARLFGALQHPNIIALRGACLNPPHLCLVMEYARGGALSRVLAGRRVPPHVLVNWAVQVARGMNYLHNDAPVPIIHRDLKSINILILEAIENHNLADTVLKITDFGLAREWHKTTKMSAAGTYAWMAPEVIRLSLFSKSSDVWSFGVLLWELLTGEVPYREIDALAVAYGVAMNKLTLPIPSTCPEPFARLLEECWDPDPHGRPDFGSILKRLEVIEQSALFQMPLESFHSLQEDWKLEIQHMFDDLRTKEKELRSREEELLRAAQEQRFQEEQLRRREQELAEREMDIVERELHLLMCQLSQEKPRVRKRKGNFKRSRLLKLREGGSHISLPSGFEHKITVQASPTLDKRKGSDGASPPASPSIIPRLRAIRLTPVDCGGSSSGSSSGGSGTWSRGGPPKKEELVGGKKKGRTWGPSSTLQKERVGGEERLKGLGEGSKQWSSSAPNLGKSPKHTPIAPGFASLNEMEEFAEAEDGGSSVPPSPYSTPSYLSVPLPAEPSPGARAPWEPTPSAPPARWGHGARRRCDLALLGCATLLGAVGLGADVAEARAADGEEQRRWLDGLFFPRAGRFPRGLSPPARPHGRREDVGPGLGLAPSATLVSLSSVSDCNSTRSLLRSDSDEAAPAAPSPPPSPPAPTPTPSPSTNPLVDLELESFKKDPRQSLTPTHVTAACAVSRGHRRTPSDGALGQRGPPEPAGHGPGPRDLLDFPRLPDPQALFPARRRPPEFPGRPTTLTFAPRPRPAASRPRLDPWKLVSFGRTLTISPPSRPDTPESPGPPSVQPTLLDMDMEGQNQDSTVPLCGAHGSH
UniProt Q9BYT3, sequence (whole entry, looked up): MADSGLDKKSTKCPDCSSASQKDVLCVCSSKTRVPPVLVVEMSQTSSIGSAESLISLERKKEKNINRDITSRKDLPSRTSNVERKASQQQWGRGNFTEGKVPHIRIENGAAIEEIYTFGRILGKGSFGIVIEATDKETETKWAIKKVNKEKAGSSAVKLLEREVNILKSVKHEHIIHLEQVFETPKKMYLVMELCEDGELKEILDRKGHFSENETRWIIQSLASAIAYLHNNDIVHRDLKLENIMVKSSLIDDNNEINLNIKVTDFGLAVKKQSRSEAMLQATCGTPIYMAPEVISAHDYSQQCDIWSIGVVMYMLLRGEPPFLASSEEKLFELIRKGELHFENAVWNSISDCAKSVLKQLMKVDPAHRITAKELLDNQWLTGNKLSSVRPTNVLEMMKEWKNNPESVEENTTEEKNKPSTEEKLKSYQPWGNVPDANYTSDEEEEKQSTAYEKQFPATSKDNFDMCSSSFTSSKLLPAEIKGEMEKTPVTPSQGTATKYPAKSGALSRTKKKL
UniProt Q16539, sequence (whole entry, looked up): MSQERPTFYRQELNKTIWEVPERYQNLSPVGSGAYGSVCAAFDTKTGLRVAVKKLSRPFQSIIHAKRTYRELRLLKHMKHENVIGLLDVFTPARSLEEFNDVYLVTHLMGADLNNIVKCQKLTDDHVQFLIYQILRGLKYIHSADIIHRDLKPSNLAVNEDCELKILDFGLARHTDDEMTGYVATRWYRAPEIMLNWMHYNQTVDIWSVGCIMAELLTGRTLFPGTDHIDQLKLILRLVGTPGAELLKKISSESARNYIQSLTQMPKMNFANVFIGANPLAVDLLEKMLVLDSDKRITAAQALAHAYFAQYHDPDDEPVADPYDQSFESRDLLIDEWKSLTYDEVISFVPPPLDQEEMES

Block 1
Structure (SMILES): COc1cc(C(=O)N2CCC(N3CCN(C)CC3)CC2)ccc1Nc1ncc2c(n1)N(C)c1ccccc1C(=O)N2C
Method: KINOMEscan
Tested at: 10 µM
Relative to: DMSO control
Direction: lower = stronger binding
| target | binding [%] |
| --- | --- |
| PIP5K2B | 100 |
| PDGFRA | 100 |
| ACVR1B | 100 |
| CLK1 | 28 |

Block 2
SMILES: NS(=O)(=O)c1cc(NC(=O)Cc2ccccc2)ccc1Oc1cccc(Cl)c1
Effect on: cell-free assay
Method: competition with immobilised ligand
Tested at: 1 µM
| target | remaining binding [%] |
| --- | --- |
| Phosphatidylinositol 4,5-bisphosphate 3-kinase catalytic subunit alpha isoform (PIK3CA, Homo sapiens, UniProt P42336) | 89 |
| Serine/threonine-protein kinase Nek9 (NEK9, Homo sapiens, UniProt Q8TD19) | 83 |
| Protein kinase C eta type (PRKCH, Homo sapiens, UniProt P24723) | 93 |
| Cyclin-dependent kinase 16 (CDK16, Homo sapiens, UniProt Q00536) | 92 |
| Mitogen-activated protein kinase kinase kinase 10 (MAP3K10, Homo sapiens, UniProt Q02779) | 98 |
| Serine/threonine-protein kinase 33 (STK33, Homo sapiens, UniProt Q9BYT3) | 100 |
| Serine/threonine-protein kinase 25 (STK25, Homo sapiens, UniProt O00506) | 88 |
| Tyrosine-protein kinase JAK1, JH1 (JAK1, Homo sapiens, UniProt P23458) | 99 |
| Proto-oncogene tyrosine-protein kinase ROS (ROS1, Homo sapiens, UniProt P08922) | 81 |
| 5'-AMP-activated protein kinase catalytic subunit alpha-2 (PRKAA2, Homo sapiens, UniProt P54646) | 82 |
| Mitogen-activated protein kinase 7 (MAPK7, Homo sapiens, UniProt Q13164) | 83 |
| Tyrosine-protein kinase ABL1, phosphorylated (ABL1, Homo sapiens, UniProt P00519, T315I) | 88 |
| Proto-oncogene tyrosine-protein kinase receptor Ret (RET, Homo sapiens, UniProt P07949) | 100 |
| Serine/threonine-protein kinase MARK2 (MARK2, Homo sapiens, UniProt Q7KZI7) | 59 |
| Ribosomal protein S6 kinase alpha-1, C-terminal kinase domain (RPS6KA1, Homo sapiens, UniProt Q15418) | 75 |
| Mitogen-activated protein kinase 15 (MAPK15, Homo sapiens, UniProt Q8TD08) | 68 |
| Tyrosine-protein kinase ITK/TSK (ITK, Homo sapiens, UniProt Q08881) | 87 |
| Serine/threonine-protein kinase tousled-like 1 (TLK1, Homo sapiens, UniProt Q9UKI8) | 99 |
| Serine/threonine-protein kinase PAK 4 (PAK4, Homo sapiens, UniProt O96013) | 87 |
| Tyrosine-protein kinase BTK (BTK, Homo sapiens, UniProt Q06187) | 76 |
| Microtubule-associated serine/threonine-protein kinase 1 (MAST1, Homo sapiens, UniProt Q9Y2H9) | 85 |
| Mitogen-activated protein kinase 14 (MAPK14, Homo sapiens, UniProt Q16539) | 100 |
| Receptor tyrosine-protein kinase erbB-2 (ERBB2, Homo sapiens, UniProt P04626) | 87 |
| Ribosomal protein S6 kinase alpha-1, N-terminal kinase domain (RPS6KA1, Homo sapiens, UniProt Q15418) | 91 |

Block 3
Target: Serine/threonine-protein kinase Sgk1 (SGK1, Homo sapiens, UniProt O00141)
Effect on: enzyme activity
Action: inhibitor
Tested at: 0.5 µM
Relative to: control
Residues (O00141 1-431): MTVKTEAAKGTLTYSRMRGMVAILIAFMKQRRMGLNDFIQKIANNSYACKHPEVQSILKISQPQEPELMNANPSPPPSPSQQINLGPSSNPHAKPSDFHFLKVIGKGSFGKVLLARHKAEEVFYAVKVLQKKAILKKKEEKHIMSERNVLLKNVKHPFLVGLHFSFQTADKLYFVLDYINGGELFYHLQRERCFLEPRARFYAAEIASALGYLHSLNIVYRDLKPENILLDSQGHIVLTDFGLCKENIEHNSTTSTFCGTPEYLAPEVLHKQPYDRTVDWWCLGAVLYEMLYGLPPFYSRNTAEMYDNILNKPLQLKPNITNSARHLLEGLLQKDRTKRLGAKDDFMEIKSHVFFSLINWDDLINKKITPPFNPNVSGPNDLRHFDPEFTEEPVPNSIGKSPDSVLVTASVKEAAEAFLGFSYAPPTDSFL
| Structure (SMILES) | remaining activity [%] |
| --- | --- |
| CCN1/C(=C/C(C)=O)Sc2ccc(OC)cc21 | 121 |
| CCC(=O)Nc1ccc2ncnc(Nc3cccc(Br)c3)c2c1 | 84.6 |
| CS(=O)(=O)CCNCc1ccc(-c2ccc3ncnc(Nc4ccc(OCc5cccc(F)c5)c(Cl)c4)c3c2)o1 | 128 |
| COc1ccc(Cl)cc1NC(=O)Nc1cc(C)nc2ccccc12 | 94.7 |
| CCOc1cc2ncnc(Nc3cccc(Br)c3)c2cc1OCC | 120 |
| Cc1ccc(NC(=O)c2ccc(CN3CCN(C)CC3)cc2)cc1Nc1nccc(-c2cccnc2)n1 | 110 |
| COc1cc2ncnc(N3CCN(C(=O)Nc4ccc(Oc5ccccc5)cc4)CC3)c2cc1OC | 99.8 |
| CN(C)CCCn1cc(C2=C(c3c[nH]c4ccccc34)C(=O)NC2=O)c2ccccc21 | 48.6 |
| CC(C)[C@H](CO)Nc1nc(Nc2cccc(Cl)c2)c2ncn(C(C)C)c2n1 | 99.1 |
| CC(C)c1nn(-c2c(Cl)cccc2Cl)c2nc(Cc3ccc(OCCO)cc3)[nH]c(=O)c12 | 118 |
| CC(=O)O/N=C1/C(c2c(O)[nH]c3cc(Br)ccc23)=Nc2ccccc21 | 81.8 |
| Cc1nc(Nc2ncc(C(=O)Nc3c(C)cccc3Cl)s2)cc(N2CCN(CCO)CC2)n1 | 132 |
| COc1cc2ncc(-c3ccccc3)nc2cc1OC | 88.5 |
| Cn1cnc2cc3c(Nc4cccc(Br)c4)ncnc3cc21 | 115 |
| O=C(Nc1ccc(Cl)cc1)c1ccccc1NCc1ccncc1 | 96 |
| C[S+]([O-])c1ccc(-c2nc(-c3ccncc3)c(-c3ccc(F)cc3)[nH]2)cc1 (stereo not shown) | 97.3 |
| COc1cc2ncnc(Nc3ccc(OCc4ccccc4)cc3)c2cc1OC | 103 |
| O=C1NC(=O)/C(=C/c2ccc3nccnc3c2)S1 | 95 |
| O=c1cc(N2CCOCC2)oc2c1ccc1ccccc12 | 98 |
| COc1ccc(-c2cnc3c(-c4ccsc4)cnn3c2)cc1 | 81.8 |
| Cn1cc(/C=C2\C(=O)Nc3ccc(S(N)(=O)=O)cc32)c2ccccc21 | 71.8 |
| Nc1[nH]nc2nnc(-c3c(-c4ccccc4)nn4ccccc34)cc12 | 99.9 |

Block 4
SMILES: CC(=O)N[C@@H](Cc1c[nH]c2ccccc12)C(=O)N[C@@H](CCC(=O)C=[N+]=[N-])C(=O)OC(C)C
Host: C57BL/6 CES1-/- mice, EL4 tumour
Route: subcutaneous
Dose: 0.3 mg/kg/day DON equivalent
Time: 5 days
| assay | test system | conditions | scale | metabolite peak intensity |
| --- | --- | --- | --- | --- |
| UPLC-MS/MS, refers to: histamine | EL4, tumour | normalised to tissue mass | higher = more metabolite | 1.63e+07 a.u. and 3.77e+07 a.u. and 1.79e+07 a.u. and 4.83e+06 a.u. and 2.3e+07 a.u. and 5.98e+06 a.u. |
| UPLC-MS/MS, refers to: 4-imidazoleacetate | EL4 tumour |  |  | 1.76e+06 a.u. and 1.55e+06 a.u. and 1.2e+06 a.u. and 1.46e+06 a.u. and 1.93e+06 a.u. and 1.63e+06 a.u. |
| LC-MS/MS metabolomics, refers to: maltose | EL4 tumour |  | higher = more metabolite | 6.49e+06 a.u. and 2.88e+07 a.u. and 1.67e+07 a.u. and 8.35e+06 a.u. and 1.62e+07 a.u. and 4.42e+07 a.u. |
| UPLC-MS/MS, refers to: N1-acetylspermidine | EL4 tumour |  |  | 1.13e+07 a.u. and 1.26e+07 a.u. and 1.83e+07 a.u. and 1.54e+07 a.u. and 6.75e+06 a.u. and 1.58e+07 a.u. |
| UPLC-MS/MS metabolomics, refers to: glucose 1-phosphate | EL4 tumour | normalised to tissue mass |  | 1.43e+07 a.u. and 1.96e+07 a.u. and 2.21e+07 a.u. and 2.71e+07 a.u. and 2.25e+07 a.u. and 1.69e+07 a.u. |

For quick reference, copied from above (block 3):
| Structure (SMILES) | remaining activity [%] |
| --- | --- |
| CS(=O)(=O)CCNCc1ccc(-c2ccc3ncnc(Nc4ccc(OCc5cccc(F)c5)c(Cl)c4)c3c2)o1 | 128 |
| CC(C)c1nn(-c2c(Cl)cccc2Cl)c2nc(Cc3ccc(OCCO)cc3)[nH]c(=O)c12 | 118 |
| Nc1[nH]nc2nnc(-c3c(-c4ccccc4)nn4ccccc34)cc12 | 99.9 |
